Published values from different studies.
Parts stem from different laboratories: compare values within a part only. Changes are numbered by the printed parent chain.

Study 1
Target: Histone acetyltransferase KAT6A, winged helix 2, GST fusion (KAT6A, Homo sapiens, UniProt Q92794, residues 85-181)
Method: protein binding microarray
Form: double-stranded DNA, one strand shown
Medium: in vitro
Tested at: not given
Notes: 8-mer, flanks averaged, mean of 2 arrays, mostly near background
Reference: not given
Reading: higher = stronger binding
Endpoint: E-score
Construct (chain): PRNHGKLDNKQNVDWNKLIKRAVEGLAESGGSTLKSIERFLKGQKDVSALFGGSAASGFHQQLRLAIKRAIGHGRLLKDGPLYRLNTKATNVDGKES
AACACGAC: 0.0759
ACGCTTCA: -0.0801
CGACTGGC: -0.0555
CGTCACGC: 0.0255
GCCCTTAA: 0.111
AGGAAAGG: -0.0192
AGGTACCT: -0.042
AGGGATGA: -0.0371
ACCATGGT: -0.165
AATTTTGT: -0.013
AAGCGCGC: 0.174
CCGAGCGC: 0.236
AGCAACCT: -0.0265
CGCCTCCC: 0.167
ACCTTTGA: -0.0235
GAATAAAC: -0.0155
ACCGGGAT: 0.0586
AAGTAGAT: 0.000105
CATTCCTC: 0.0213
CCAGTGAC: 0.0747
GAGATAAA: 0.159
AATCTAGA: -0.0876
AGCATTTA: 0.0515

Study 2
Target: Sal-like protein 4, full length isoform B (SALL4, Homo sapiens, UniProt Q9UJQ4-2, residues 1-616)
Method: universal PBM
Form: double-stranded DNA, one strand shown
Medium: in vitro
Tested at: not given
Notes: 8-mer, flanks averaged, mean of replicates
Reading: higher = stronger binding
Endpoint: E-score
Residues (chain): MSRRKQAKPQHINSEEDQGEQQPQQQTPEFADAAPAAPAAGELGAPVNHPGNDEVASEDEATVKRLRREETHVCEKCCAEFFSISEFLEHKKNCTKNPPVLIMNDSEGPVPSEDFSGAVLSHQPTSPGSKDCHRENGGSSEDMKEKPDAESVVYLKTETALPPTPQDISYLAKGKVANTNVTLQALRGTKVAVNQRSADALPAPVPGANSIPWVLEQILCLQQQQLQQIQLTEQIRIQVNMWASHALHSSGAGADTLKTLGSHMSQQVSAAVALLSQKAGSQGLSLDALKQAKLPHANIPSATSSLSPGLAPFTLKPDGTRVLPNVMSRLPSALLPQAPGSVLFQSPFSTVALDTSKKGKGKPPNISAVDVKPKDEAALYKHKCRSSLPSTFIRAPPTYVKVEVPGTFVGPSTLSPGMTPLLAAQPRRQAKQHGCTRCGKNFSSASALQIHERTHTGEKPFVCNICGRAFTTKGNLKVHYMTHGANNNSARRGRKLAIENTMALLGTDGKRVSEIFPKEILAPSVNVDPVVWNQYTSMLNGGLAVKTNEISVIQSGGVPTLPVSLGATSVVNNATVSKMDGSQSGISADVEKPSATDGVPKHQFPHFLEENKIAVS
AATATCCT: 0.164
GCACTAAC: -0.0604
AGCTAAGC: -0.287
CCTTATAC: 0.177
GCAGATGC: -0.218
TAAGCTAA: 0.205
AACTGAGC: -0.276
ATTGCAGC: 0.0465
AGTGATGC: -0.0835
GCCGTAGC: -0.175
CGTACGTA: 0.142
TGGTAGAA: -0.0242
GCGGGCGA: -0.363
CTTCTTTC: 0.00638
AAAAACAT: 0.257
CCTGCCGC: -0.343
CCTCACGC: -0.056
AGGCCAAT: 0.0695
CACACTAA: 0.141
CAGGGGAG: -0.156
ATTCTAAC: 0.18
CGGTCGAC: -0.23
AGCCGAGC: -0.376
CGAGTGCG: -0.195
GTGATACA: 0.133

Study 3
Target: CCNB1, cyclin fold, Cln2 fusion (human)
Method: yeast growth competition, sequencing
Medium: yeast
Notes: weak parent motif
Reference: not given
Reading: higher = stronger binding
Endpoint: normalised enrichment score
Parent: WEE2 docking peptide (human); KELRQKLNFSYCE
KELRQKLNFSYCA [E13A]: 0.41
KELRQKANFSYCE [L7A]: 0.0032
KELRQKLNASYCE [F9A]: -0.0377
KELRQALNFSYCE [K6A]: 0.0339
KALRQKLNFSYCE [E2A]: 0.587
KELRAKLNFSYCE [Q5A]: 0.189
KELRQKLNFAYCE [S10A]: 0.486

Study 4
Target: ABI1, truncated, D143A, DHFR fusion (Arabidopsis thaliana)
Method: DHFR PCA, deep sequencing
Medium: yeast
Notes: methotrexate growth selection, single substitutions
With: (+)-ABA 710 µM
Reference: wild-type fitted maximum
Reading: higher = stronger binding
Endpoint: relative binding score
Parent: PYL1, truncated, DHFR fusion (Arabidopsis thaliana); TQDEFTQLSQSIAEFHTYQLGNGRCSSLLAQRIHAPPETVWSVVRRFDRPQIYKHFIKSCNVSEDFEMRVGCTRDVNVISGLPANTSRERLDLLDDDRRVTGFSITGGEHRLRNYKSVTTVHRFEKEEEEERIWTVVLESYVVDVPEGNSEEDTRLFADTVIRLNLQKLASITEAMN; partner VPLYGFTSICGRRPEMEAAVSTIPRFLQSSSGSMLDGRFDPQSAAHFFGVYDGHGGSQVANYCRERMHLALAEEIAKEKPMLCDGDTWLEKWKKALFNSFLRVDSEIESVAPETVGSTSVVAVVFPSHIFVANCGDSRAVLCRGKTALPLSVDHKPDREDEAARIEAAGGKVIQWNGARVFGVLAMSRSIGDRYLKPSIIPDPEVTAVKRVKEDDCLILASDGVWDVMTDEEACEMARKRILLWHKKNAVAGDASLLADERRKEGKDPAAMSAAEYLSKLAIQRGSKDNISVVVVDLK
V136H: 86%
L164T: 107%
A30H: 105%
T17C: 92.8%
E38Y: 81.3%
F47T: 6.8%
V40N: -45.7%
T39N: 90.5%
H16K: 32.3%
N85H: 101%
N61M: 101%
E147F: 95.5%
S26T: 102%
G107A: 104%
A13V: 100%
V136M: 103%
W134I: 112%
T86Y: 98.4%
N61T: 103%
L82N: 30.1%
R69P: 63.3%
S87W: 19.5%
L29E: 45%
V137E: -6.98%

Study 5
Target: PABPC1L2, full length, GST fusion (mouse, UniProt A0ABA7IW68)
Method: RNAcompete
Form: RNA
Medium: in vitro
Tested at: 20 nM
Notes: 7-mer, probes averaged, single round
Reference: mean of 7-mers
Reading: higher = stronger binding
Endpoint: 7-mer Z-score
Target sequence (chain): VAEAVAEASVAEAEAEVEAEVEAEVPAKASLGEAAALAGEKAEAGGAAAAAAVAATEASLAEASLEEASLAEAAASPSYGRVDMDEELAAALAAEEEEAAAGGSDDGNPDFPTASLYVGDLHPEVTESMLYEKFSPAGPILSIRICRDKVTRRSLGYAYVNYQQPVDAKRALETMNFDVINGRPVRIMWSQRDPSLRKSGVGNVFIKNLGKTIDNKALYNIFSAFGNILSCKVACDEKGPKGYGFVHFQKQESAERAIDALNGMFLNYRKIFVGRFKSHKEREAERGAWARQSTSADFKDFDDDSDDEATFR
GAGAGUC: -0.311
GUUCCCU: -0.306
GGAAUCC: -0.0826
GUGUUCU: -0.454
GAUAAAG: 1.54
CCUACCA: -0.184
CGUGCAA: -0.122
GGAGAUG: 0.0823
GGUGGAA: 0.292
GUCCUAG: -0.186
GAAAUUG: 0.709
UAGGGCG: 0.258
CUACUAU: -0.0989
UUCGGAA: -0.0917
UCAUUAU: -0.0808
CGUGGGC: -0.0301
UCGGUUU: -0.483
AGCUAGG: 0.336
GUUUGUA: -0.418
UAACAGG: 0.0913
CGUAGUC: -0.398
GAGUGAG: -0.262
AUCCACU: -0.148
ACUCUUC: -0.472

Study 6
Target: TEF, bZIP domain (human)
Method: DHFR protein complementation
Medium: yeast
Notes: single substitutions, most at no-binding floor
Reference: wild-type JUN-FOS pair
Reading: higher = stronger binding
Endpoint: binding fitness
Parent: JUN, bZIP domain (human); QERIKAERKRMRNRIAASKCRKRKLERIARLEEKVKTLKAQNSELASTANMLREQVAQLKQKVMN; partner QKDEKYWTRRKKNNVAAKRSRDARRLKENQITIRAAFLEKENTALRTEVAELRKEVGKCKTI
M51Q: -1.46 natural log
K36E: -1.27 natural log
T48D: -1.65 natural log
E33Q: -1.68 natural log
Q58P: -1.44 natural log
S47N: -1.33 natural log
A57V: -1.44 natural log
S47L: -1.47 natural log
I28F: -1.57 natural log
I28K: -1.53 natural log
Q55W: -1.5 natural log
S47M: -1.5 natural log
L59S: -1.29 natural log
V35Q: -1.49 natural log
N42C: -1.49 natural log
R53A: -1.27 natural log
Q41H: -1.46 natural log
E54A: -1.4 natural log

Study 7
Target: RNA binding protein fox-1 homolog 2, RRM domain, GST-SBP tag (RBFOX2, Homo sapiens, UniProt O43251-10, residues 100-194)
Method: RNA Bind-n-Seq
Form: RNA
Medium: in vitro
Tested at: 365 nM
Notes: natural RNA segment, single round, ends assumed
Reference: no-protein control
Reading: higher = stronger binding
Endpoint: RBNS enrichment (R)
All sequences stand within: GGGAGUUCUACAGUCCGACGAUC … UGGAAUUCUCGGGUGCCAA
Construct (chain): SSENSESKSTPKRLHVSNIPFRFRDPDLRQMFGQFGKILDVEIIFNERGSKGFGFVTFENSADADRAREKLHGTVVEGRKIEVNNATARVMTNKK
UCAGGCAGAAGAAUCUUUCUUCUCGCCUAGGAUUUCAGCCAUGCGCGCGCUCUCUCUCUUUCUCUCUCUUUUCCUCUCUCUCCCUCUUUCUAGCCUGGGGCUUGAAUUUG: 0.533
UAUUAUUUUGAAUCCAAAUGAAAGCUAUACUGUUUGCUUUCAAUGGUGGCAAAAACUUGCAAAAAGCAGAUAUACUUUUGCUAAUUUAAGUUGAAGUACUAUGAAUACAA: 0.41
GUACGUUUUACGUUUUCCUAUUUACCAGUGGGGUUUUGCUGUAGCCUGUGUAACUCUGCUCUGAGGAACAGGUGUUUCCCAACUGGAUUCGCCUUUUCUAGUCCAGUAGA: 0.378
UGAUGCUCACAUAUUCUGUGCCAUGGAGCAGGUUGAAGAUGAAAUAAAAGGUUGUUUGGAUUUUCUACGUACGGUAUAUAGCGUAUUUGGAUUUUCUUUUAAACUAAACC: 0.321
CCUCACUGAAACACCAGGAUGCCCACUGGAUAUACUAAUCUGAACAUCUGUAGGUAGUUUGUCAUGAAAAAGUGGAGAGAAGAUGAGACUUUUGAAUGAAUGAAAAAGGG: 2.68
UAAAAUCCUAAUAAUGUCUCAUUUCCAAUAUGUUAUUUUCAGAUAACUAAGGUUUUGCUACUAAUGUCAGCCAUUUACUCUCCCACUAAUUGGGAUUAUUUUUUAAAAGA: 0.452
CAGCCAUAGCACUUACCCAUAGAGACCGCUAGGGUUGGCCGUGCUGUGGUGGGGGAUGGAGGCCUGAGCUCCUUGGAAUCCACUUUUCAUUGUGGGGAGGUCUACUUUAG: 0.329
AAGAUUUGCUGAUGCCAGACGAUCUACCCCAGCAUGUGAAUGCAUAAUGGACAUUGCCAUCUCUGCCCUUUGGUCCUCCUUGCUUCUCUCCAUACAAUAAGACACCUCCG: 6.39
GGUGCCUCAGUGUUGGCCAAACUCUGGAGUCACUGACUGGUUUGACUUUCAUGUGGUAAAUAUGCAUUUGGUCUGUACUGAUCAUGGAAUAAACACAUCUCUCUUUUUUA: 0.257
AGUGGAAUAACCAAGUCAAAAACCAUGUCAAAACUAUCCUCUGGGGGGUGCUGAGGGUGCUAUGGAGACCCACAAAUAAACAAUUACUCCUCCACUGAAUUGCUAAACAC: 0.411
CUUGCAUACUAUUAUGCAGCUUACCUAACUCUCAGACUAUUCUGAGUAAUGCUUGCUUGCUAAUGAAUGUAUAGGAGACCACAUUGUAAUUGUUCUUAGAUGAUGGAGUC: 0.874
GGGCACCUGGCUCAAUCUUGUAACUGCCUGCUAGCCAUAGAUUCCUUUCAGCCUUGCUGACUUCUCCCUAUAAAAGUAAAGCCUUUUUCUGCCCCAGCUCUGAGACACUU: 2.13

Repeated from above (study 3):
KELRQKLNFSYCA [E13A]: 0.41
KELRQKLNASYCE [F9A]: -0.0377
KELRQKLNFAYCE [S10A]: 0.486
KELRQALNFSYCE [K6A]: 0.0339
KELRQKANFSYCE [L7A]: 0.0032
KALRQKLNFSYCE [E2A]: 0.587
KELRAKLNFSYCE [Q5A]: 0.189
